# Experimental data of several laboratories.
# Each line is one published result; not all experiments were run side by side. Values joined by “and” are separate records of one study, mostly repeats; a detail may differ.
# Organism: Staphylococcus aureus
SMILES,test,system,setting,MIC
N=C(N)NCCC[C@@H]1NC(=O)[C@H](CCCNC(=N)N)NC(=O)[C@H](CCCNC(=N)N)NC(=O)[C@H](CCCNC(=N)N)NC(=O)[C@H](Cc2c[nH]c3ccccc23)NC(=O)[C@H](CCCNC(=N)N)NC(=O)[C@H](CCCNC(=N)N)NC(=O)[C@@H](N)CCCCn2cc(nn2)C[C@@H](C(N)=O)NC1=O,,ATCC 25923,"24 h, 37 °C",7.8 µg/mL
COc1cc(/C=C/C(=O)NCCCCCC(=O)N[C@@H](CCCNC(=N)N)C(=O)N[C@@H](CCCNC(=N)N)C(=O)N[C@@H](Cc2c[nH]c3ccccc23)C(=O)N[C@@H](CCC(N)=O)C(=O)N[C@@H](Cc2c[nH]c3ccccc23)C(=O)N[C@@H](CCCNC(=N)N)C(N)=O)ccc1O,broth microdilution,ATCC 25923,"24 h, 37 °C",39 µM and 37 µM
CCCO[C@H]1[C@H](O)[C@@H](N)[C@@H](O[C@H]2[C@H](O[C@@H]3O[C@H](CO)[C@@H](O[C@H]4O[C@@H](CN)[C@@H](O)[C@H](O)[C@H]4N)[C@H]3O)[C@@H](O)[C@H](N)C[C@@H]2N)O[C@@H]1CO,"microbial growth, broth dilution",MRSA,clinical isolate,16 µg/mL
CC(C)C1=CC2=CCC3C(C)(C(=O)OCCC[N+](C)(C)C)CCCC3(C)C2CC1 (stereo not shown),microbial growth,ATCCBAA44 MRSA,drug-resistant strain,19.5 µg/mL
COc1ccc2c(c1)C=[N+]1C3CCCCC3[N+]3=Cc4c(ccc5ccc(OC)cc45)[O][Au-]13[O]2.F[P-](F)(F)(F)(F)F (stereo not shown),"bacterial growth, broth microdilution",vancomycin-intermediate,24 h,> 20 µM
CC(C)=CCc1cc([C@@H]2CC(=O)c3ccc(O)c(CC=C(C)C)c3O2)c(O)c(CC=C(C)C)c1O,,,,inactive
CC[C@H](C)[C@H](NC(=O)[C@@H](CCCNC(=N)N)NC(=O)[C@H](CCCNC(=N)N)NC(=O)[C@@H]1CCCN1C(=O)[C@H](Cc1c[nH]c2ccccc12)NC(=O)[C@H](CCCNC(=N)N)NC(=O)[C@@H]1CCCN1C(=O)[C@H](CCCNC(=N)N)NC(=O)[C@@H]1CCCN1C(=O)[C@H](CC(C)C)NC(=O)[C@H](Cc1ccc(O)cc1)NC(=O)[C@@H]1CCCN1C(=O)[C@@H]1CCCN1C(=O)[C@H](CCCCN)NC(=O)[C@H](CC(=O)O)NC(=O)[C@@H](N)C(C)C)C(=O)N[C@@H](Cc1ccc(O)cc1)C(=O)N[C@@H](CC(N)=O)C(=O)N[C@H](CCCNC(=N)N)C(N)=O,broth microdilution,DSM 6247,18 h,64 µg/mL
CC(C)C[C@@H]1NC(=O)[C@@H](CC(C)C)NC(=O)[C@H](CCN)NC(=O)[C@@H](NC(=O)[C@H](CCN)NC(=O)[C@@H](NC(=O)CCCCn2cc(C[C@H](NC(=O)CC[C@@H]3NC(=O)[C@H](CCN)NC(=O)[C@H](Cc4ccc(O)cc4)NC(=O)[C@H]([C@@H](C)O)NC(=O)[C@H](C(C)C)NC(=O)[C@@H]4CCCN4C(=O)[C@@H](C)NC(=O)[C@H](CO)NC(=O)[C@H](C)NC(=O)[C@H](C(C)(C)C)NC(=O)[C@H](CCO)NC(=O)[C@H](Cc4c[nH]c5ccccc45)NC(=O)[C@H](CCO)NC(=O)[C@@H](CCN)NC3=O)C(N)=O)nn2)[C@@H](C)O)CCNC(=O)[C@H]([C@@H](C)O)NC(=O)[C@H](CCN)NC(=O)[C@H](CCN)NC1=O,broth microdilution,"MRSA USA300, CAMHB with polysorbate-80",16 h,> 64 µg/mL
CC(C)[C@H](NC(=O)[C@H](CCCCN)NC(=O)[C@H](CCCNC(=N)N)NC(=O)[C@@H](NC(=O)[C@H](C)NC(=O)[C@H](CC(N)=O)NC(=O)[C@H](CCCNC(=N)N)NC(=O)[C@@H](NC(=O)[C@H](CCCCN)NC(=O)[C@H](CCCCN)NC(=O)[C@@H](NC(=O)[C@@H](NC(=O)[C@H](CCCNC(=N)N)NC(=O)[C@H](CCCNC(=N)N)NC(=O)[C@H](Cc1c[nH]c2ccccc12)NC(=O)[C@H](Cc1c[nH]c2ccccc12)NC(=O)CN)[C@@H](C)O)C(C)C)C(C)C)C(C)C)C(=O)O,bacterial growth,MRSA clinical isolate,18 h,64 µg/mL
CC(C)C[C@@H]1NC(=O)[C@H](C)NC(=O)[C@H](NC(=O)[C@@H](N)COC(=O)[C@@H](C)NC(=O)[C@@H](CC(C)C)NC(=O)[C@@H](N)Cc2ccccc2)[C@H](C(N)=O)OC(=O)[C@H](CC(C)C)NC1=O,,MRSA ATCC 700698,TFA salt,> 32 µg/mL
CC(=O)N[C@@H](CCCNC(=N)N)C(=O)N[C@@H](Cc1c[nH]c2ccccc12)C(=O)N[C@@H](CCCNC(=N)N)C(=O)N[C@@H](Cc1c[nH]c2ccccc12)C(=O)N[C@@H](Cc1c[nH]c2ccccc12)C(=O)N[C@@H](CCCCN)C(=O)N[C@@H](Cc1ccccc1)C(=O)N[C@H](C(N)=O)C(C)C,,"MRSA ATCC 33591, Mueller-Hinton broth","overnight, 37 °C",11.3 µM
CN[C@H](CC(C)C)C(=O)N[C@H]1C(=O)N[C@@H](CC(N)=O)C(=O)N[C@H]2C(=O)N[C@H]3C(=O)N[C@H](C(=O)N[C@H](C(=O)NCc4cn(CCOCCOCCOCCC(=O)N[C@H](C(=O)N[C@@H](CCN)C(=O)N[C@H]5CCNC(=O)[C@H]([C@@H](C)O)NC(=O)[C@H](CCN)NC(=O)[C@H](CCN)NC(=O)[C@H](CC(C)C)NC(=O)[C@@H](CC(C)C)NC(=O)[C@H](CCN)NC5=O)[C@@H](C)O)nn4)c4cc(O)cc(O)c4-c4cc3ccc4O)[C@H](O)c3ccc(c(Cl)c3)Oc3cc2cc(c3O[C@@H]2O[C@H](CO)[C@@H](O)[C@H](O)[C@H]2O[C@H]2C[C@](C)(N)[C@H](O)[C@H](C)O2)Oc2ccc(cc2Cl)[C@H]1O,broth microdilution,MSSA ATCC 29213,"20 to 24 h, 37 °C, 0.002% polysorbate 80",0.25 µg/mL
CC(C)CCCCCCCCC/C=C/C(=O)N[C@@H](CC(=O)O)C(=O)N[C@H]1CNC(=O)[C@@H]2CCCN2C(=O)CNC(=O)[C@@H]([C@@H](C)O)NC(=O)CNC(=O)[C@H](CC(=O)O)NC(=O)CNC(=O)[C@H](CC(=O)O)NC(=O)CNC(=O)[C@H]2CCCCN2C1=O,,MRSA USA300,added: Ca2+ 1 mM,> 64 µg/mL
CCCCCCCCCCCC[S+]([O-])CC1OC(OC2C(N)CC(N)C(OC3OC(CN)C(O)CC3N)C2O)C(O)C(N)C1O (mixture of isomers),,NorA,,37.5 µg/mL
CC(C)C[C@@H]1NC(=O)[C@H](C)NC(=O)[C@H](NC(=O)[C@H](C)NC(=O)[C@@H](CCCCN)NC(=O)[C@@H](CC(C)C)NC(=O)[C@@H](N)Cc2ccccc2)[C@H](C(N)=O)OC(=O)[C@H](CC(C)C)NC1=O,,MSSA ATCC 29213,TFA salt,8 µg/mL
CC1=C[C@@]2(C)C(=C(C)[C@H]3[C@@H]4C[C@H](C)C[C@H](C)[C@H]4[C@H]4Oc5ccc(cc5)C[C@@H]5C(=O)NC(=O)[C@H]5C(=O)[C@@H]2[C@@H]43)[C@H]1C,"microbial growth, broth dilution",ATCC700699 MRSA,drug-resistant strain,12.5 µM
CCCCc1ccc(N2C(=O)/C(=N\NC(=N)N)c3cc(OC)ccc32)cc1,broth microdilution,BAA41 MRSA,"18 h, 37 °C",6 µg/mL
CCCCCCCCOC(=O)[C@@H]1NC(=O)[C@@H]2Cc3ccc(cc3)Oc3cc4cc(c3O)-c3ccc5c(c[nH]c5c3)C[C@@H](NC(=O)C(N)c3ccc(O)cc3)C(=O)N[C@H](c3ccc(O)cc3)C(=O)N[C@H]4C(=O)N[C@@H](C(=O)N2C)c2ccc(cc2)Oc2cc1ccc2O (stereo partly shown),,"ATCC 33591 MRSA, Mueller-Hinton broth",,> 128 µg/mL
O=C1c2ccccc2NC(c2ccc([N+](=O)[O-])cc2)N1/N=C/c1ccc([N+](=O)[O-])cc1 (stereo not shown),"microbial growth, broth dilution",MRSA,"24 h, drug-resistant strain, clinical isolate",> 256 µg/mL
CC[C@H](C)[C@H](NC(=O)[C@@H](Cc1ccccc1)NC)C(=O)N[C@@H](CO)C(=O)N[C@H](CCCNC(=N)N)C(=O)N[C@@H](C(=O)N[C@H](C(=O)OC[C@H](N)C(=O)N[C@H]1C(=O)N[C@@H](C)C(=O)N[C@@H](CC(C)C)C(=O)N[C@@H]([C@@H](C)CC)C(=O)O[C@H]1C)[C@@H](C)CC)[C@@H](C)CC,broth microdilution,"ATCC 29213, MSSA, Mueller-Hinton broth","16 h, 37 °C",0.125 to 0.25 µg/mL
CC[C@H](C)[C@H](NC(=O)[C@H](CC(C)C)NC(=O)[C@H](CCC(=O)O)NC(=O)[C@H](CO)NC(=O)[C@H](CCCNC(=N)N)NC(=O)[C@@H](N)CO)C(=O)N[C@H](C(=O)N[C@@H](CCCNC(=N)N)C(=O)N[C@@H](CCC(N)=O)C(=O)N[C@@H](CCCNC(=N)N)C(=O)N[C@@H](CC(C)C)C(=O)N[C@@H](Cc1ccccc1)C(N)=O)C(C)C,broth microdilution,Mueller Hinton broth,,> 400 µg/mL
CC[C@H](C)[C@@H]1NC(=O)CNC(=O)[C@H](CCCCN)NC(=O)[C@H](C)NC(=O)[C@H](CCC(=O)O)NC(=O)[C@H](Cc2ccccc2)NC(=O)[C@H](CO)NC(=O)[C@H](CC(C)C)NC(=O)[C@H](C(C)C)NC(=O)[C@H](CC(=O)O)NC(=O)[C@@H](NC(=O)[C@@H](NC(=O)[C@@H](N)C(C)C)[C@@H](C)O)CSSC[C@@H]2NC(=O)[C@H](CO)NC(=O)CNC(=O)CNC(=O)[C@H](CCCCN)NC(=O)[C@H](CCCCN)NC(=O)[C@H](CCCNC(=N)N)NC(=O)[C@H](CC(C)C)NC(=O)[C@H](C)NC(=O)[C@H]([C@@H](C)CC)NC(=O)[C@@H]3CSSC[C@@H](C(=O)N[C@@H](CCCNC(=N)N)C(=O)N[C@@H](CC(N)=O)C(=O)O)NC(=O)[C@H](C(C)C)NC(=O)[C@H](CSSC[C@H](NC(=O)[C@H](C)NC(=O)[C@H](CO)NC(=O)[C@H](Cc4c[nH]cn4)NC(=O)[C@H](CC(N)=O)NC(=O)[C@H](C(C)C)NC(=O)[C@H](C)NC1=O)C(=O)N[C@@H](C)C(=O)N[C@@H](CC(C)C)C(=O)N[C@@H](Cc1c[nH]cn1)C(=O)N3)NC(=O)[C@H](C(C)C)NC(=O)CNC(=O)[C@H](CC(N)=O)NC(=O)[C@H](CCC(N)=O)NC2=O,broth microdilution,KCTC 1621,"16 h, 37 °C",0.8 µM
